Experimental data pooled from the literature.
A part holds a random share of what one study measured.

Sample 1
Target: RNA binding protein fox-1 homolog 2, RRM domain, GST-SBP tag (RBFOX2, Homo sapiens, UniProt O43251-10, residues 100-194)
Method: RNA Bind-n-Seq
Form: RNA
Medium: in vitro
Concentration: 365 nM
Setting: natural RNA segment, single round, ends assumed
Reference: no-protein control
Direction: higher = stronger binding
Quantity: RBNS enrichment (R)
Construct (chain): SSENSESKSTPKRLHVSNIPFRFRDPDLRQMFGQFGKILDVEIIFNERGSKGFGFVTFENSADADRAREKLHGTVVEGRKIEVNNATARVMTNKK
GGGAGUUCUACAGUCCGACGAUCUCAAAAUGUUUAGUAUAAGAACACUUAGUCUACAUGCUGGGGUGCCUAGCUUACACAGAGCCUGGGUUCAGUCCUUCACACUGUAUAAACUGGGCGAGACAGAGCAUGUUUGGAAUUCUCGGGUGCCAA: 0.669
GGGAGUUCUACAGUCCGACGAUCGUGUGUAGGCUCCCUUCUCACCCCAGGCACCUAGGAGCCCUCUUGCCAGUUCCUCUCUCGCUCUGUUUCCAGACCUGUCUCUCUCUCUGUCCUGGCAGCUUCUCUGAGGUUGGAAUUCUCGGGUGCCAA: 1
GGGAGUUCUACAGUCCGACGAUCAUUGGUGAGCAGCUAACUCGCUCAUUGAUGAGCAGCUAACUCUCACACACAUACACACACACACACACACACACACACCCCGACACCCUGCUUUUCAUACAGAACUAGCCUGGAAUUCUCGGGUGCCAA: 0.574
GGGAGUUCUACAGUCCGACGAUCAUAUUUAUUUGAUAGCGAUAAGUCUCCGAAGGGAGUGGAAAUGCAGUCAGCCUGGGCCCUUAGCCCAUGACUACCCUCCAGUGAGGCUCUGAGGCCUGGCUAGGGCCCUCUGGAAUUCUCGGGUGCCAA: 0.364
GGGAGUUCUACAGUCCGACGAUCGAGAAAUCUAUUGGUCUGAAGGUUUCUGAACCUCUUUCUGGUUCUCAGCAGAAGUAACUGAAGUAGAUCAGGAAGGGGCUGCCUCAGGAAAAUUCCUAGAUCCUAGGAAUUGGAAUUCUCGGGUGCCAA: 0.264
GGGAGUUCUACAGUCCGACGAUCAGAGAAAAGGAUUGUGGGAAACUCCAGGACUCUUCCCACCGCCUCCCAGCGCCUGCCUGCUGGGGCUGCCUGCAUGCCUCCCCUGCACCUGGGGGUACCCGCAUCCACUUUGGAAUUCUCGGGUGCCAA: 29.4
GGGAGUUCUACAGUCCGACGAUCGAGGUCUUGAUUUCACCAUUGUCGGUGAAGAAAAUUUUCAAUAAAUAUGUAUUACCCGUCUGAAGCUAAAGAUACUGUGUAACGGACUCUUUCCACUUGUCCCAUUUCUCUGGAAUUCUCGGGUGCCAA: 0.457
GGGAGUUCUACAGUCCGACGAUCGGAGCCGGUGUAAUUCCUCCCUAAGAGGCAACCUGUUGAAUUUACUCUCUCAGAGUAAAUGGUGGGAAGGGAUCCCUUUGUAUACUUUUUUAAAUACUACAAAUUAGUGUUGGAAUUCUCGGGUGCCAA: 0.344

Sample 2
Target: Interferon regulatory factor 3, full length, phosphomimetic (IRF3, Homo sapiens, UniProt Q14653, residues 1-427, S386D/S396D/S398D/S402D/T404D/S405D)
Chain of UniProt Q14653 (whole entry, unmodified, looked up): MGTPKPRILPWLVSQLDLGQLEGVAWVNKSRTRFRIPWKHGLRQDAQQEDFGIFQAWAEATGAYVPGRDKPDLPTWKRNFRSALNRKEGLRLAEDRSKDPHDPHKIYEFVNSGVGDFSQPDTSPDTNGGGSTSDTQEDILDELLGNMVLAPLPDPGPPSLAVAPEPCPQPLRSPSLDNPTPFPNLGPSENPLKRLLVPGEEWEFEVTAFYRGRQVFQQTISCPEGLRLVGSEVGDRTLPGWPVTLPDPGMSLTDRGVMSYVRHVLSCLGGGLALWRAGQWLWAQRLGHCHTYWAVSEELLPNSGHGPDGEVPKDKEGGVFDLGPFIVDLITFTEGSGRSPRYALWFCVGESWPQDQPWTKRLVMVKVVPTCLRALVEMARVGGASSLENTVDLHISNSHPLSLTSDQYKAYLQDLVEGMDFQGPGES
Method: protein-binding microarray
Form: double-stranded DNA, one strand shown
Medium: in vitro
Concentration: 2540 nM top
Setting: 60-bp whole probe
With: salmon DNA 0.4 mg/ml
Reference: random background probes
Direction: higher = stronger binding
Quantity: fitted relative affinity
Constant ends, left off below: GCCTAGCAC … GTCTTGATTCGCTTGACGCTGCTG
CTTTCTATGTCTGTTTTTGCGTGCTAG: 4.72 z-score
GACGGTTTCCTATCCCTGACGTGCTAG: 6.36 z-score
TCAATCTTAGATATTAAACTGTGCTAG: 0.671 z-score
TTAGGACTGGACTCTCGGTTAGTGCTA: -0.788 z-score
TCATTTTAGCTTCTCAAACTGTGCTAG: 1.81 z-score
GACGCACTGGACTATCGGGACGTGCTA: -0.47 z-score
TAAGATATCAGACTGGATTAGTGCTAG: 0.134 z-score
TTAGGTAGCCTTCTCCTTTAGTGCTAG: 2.46 z-score
GACGGTATGGGGTTTCGGGACGTGCTA: 0.838 z-score
TTAGGTATCGGTTTTCGGTTAGTGCTA: 6.02 z-score
GACGATCTCAGCCTCGAGACGTGCTAG: 0.105 z-score
CACGGACTGGGGACTGGGGACGTGCTA: -0.932 z-score
GACGATATCCGTCTCGAGACGTGCTAG: 1.89 z-score
TCAATTTTTTTTTTCTAACTGTGCTAG: 0.982 z-score
GACGAACTTGGGTATCGAGACGTGCTA: -0.236 z-score
TCATGTTTTTTTCTACTACTGTGCTAG: 0.706 z-score

Sample 3
Target: Ras GTPase-activating protein-binding protein 1, full length (G3BP1, Homo sapiens, UniProt Q13283)
Chain of UniProt Q13283 (whole entry, looked up): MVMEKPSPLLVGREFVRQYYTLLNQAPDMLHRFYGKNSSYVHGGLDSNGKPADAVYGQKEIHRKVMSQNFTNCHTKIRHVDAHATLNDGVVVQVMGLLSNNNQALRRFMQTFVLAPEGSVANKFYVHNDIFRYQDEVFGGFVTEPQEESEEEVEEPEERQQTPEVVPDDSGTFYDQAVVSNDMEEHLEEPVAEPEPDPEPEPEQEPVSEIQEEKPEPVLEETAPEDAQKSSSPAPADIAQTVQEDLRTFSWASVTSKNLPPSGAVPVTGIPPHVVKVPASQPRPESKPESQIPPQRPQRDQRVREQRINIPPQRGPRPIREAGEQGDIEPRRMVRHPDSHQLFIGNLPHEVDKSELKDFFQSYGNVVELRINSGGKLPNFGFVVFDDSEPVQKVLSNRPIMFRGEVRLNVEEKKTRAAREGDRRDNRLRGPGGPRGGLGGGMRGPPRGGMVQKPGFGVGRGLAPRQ
Method: RNA Bind-n-Seq
Form: RNA
Medium: in vitro
Concentration: 200 nM
Setting: whole 134-nt RNA, ends assumed
With: 150 mM KCl
Reference: input library
Direction: higher = stronger binding
Quantity: log2 enrichment
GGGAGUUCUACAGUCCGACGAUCACCAUGCAGGUGGGCAUCUUUGGGAAGUGGGGCAAGGGGGGGAUAGGGAGGGGGGUAACACUUUGGGAACAGGUGGUCCCAUGUCGUUUCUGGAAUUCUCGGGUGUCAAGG: 1.28
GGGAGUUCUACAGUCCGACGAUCAAGUCCUGUGCUACACAUCGUAUGUACCGAAUCGGGGAAAAAGGGGUGGGGUGGGGAAAGUAUUAUGUUACGCCGUUCGGAUCUGCACUUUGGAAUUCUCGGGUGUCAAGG: 0.72
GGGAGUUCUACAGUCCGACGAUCAAGUCCUGUGCUACACAUCGUAUGUACCGAAUCAAACCCAAACCCCCAAACCCAAAAAAGUAUUAUGUUACGCCGUUCGGAUCUGCACUUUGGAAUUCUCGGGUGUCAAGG: -0.623
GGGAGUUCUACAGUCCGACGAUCUGGCUUCCUUCUUUCUAUUCCCCGCCUGCCUUCCAUGGUAGAGGCCAGUGACUUUGAGAUUAAUGGACUGGACUUCAUGGUAAGACCCUCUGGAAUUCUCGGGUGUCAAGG: 0.434
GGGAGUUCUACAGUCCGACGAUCACCAUGCAGGUGGGCAUCUUUGGGAAGUGGGGCUAGGGGGGGAUAGGGAGGGGGGUAACACUUUGGGAACAGGUGGUCCCAGGUCGUUUCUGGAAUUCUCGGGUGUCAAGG: 1.15
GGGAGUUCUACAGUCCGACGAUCAAUGUGUCCUCCCUGUCCAAAUUGGGAAUGACUUAAUGUCAAUUUGUUUGUUGGUUGUUUUAAUAAUACUUCCUUAUGUAGCCAUUAAGAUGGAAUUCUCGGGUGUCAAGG: -0.729
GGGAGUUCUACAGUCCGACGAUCCAAGUCCUGUGCUACACAUCGUAUGUACCGAAUCGGAAAAAAAGGUGGUUUUUGGAAAGUAUUAUGUUACGCCGUUCGGAUCUGCACUUCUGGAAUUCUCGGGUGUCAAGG: -1.14
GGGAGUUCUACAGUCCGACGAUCAAGUCCUGUGCUACACAUCGUAUGUACCGAAUCGGGAAAGGGAAAAAGGGAAAGGGAAAGUAUUAUGUUACGCCGUUCGGAUCUGCACUUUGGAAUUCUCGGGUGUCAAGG: 0.131
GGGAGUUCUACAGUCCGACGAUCUCCUGUGCUACACAUCGUAUGUACCGAAUCGGGGAGGGGAAAAAGGGGUUUUUUUGGGGAAAGUAUUAUGUUACGCCGUUCGGAUCUGCAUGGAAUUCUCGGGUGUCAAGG: 0.533

Sample 4
Target: PABPC1L2, full length, GST fusion (mouse, UniProt A0ABA7IW68)
Method: RNAcompete
Form: RNA
Medium: in vitro
Concentration: 20 nM
Setting: 7-mer, probes averaged, single round
Reference: mean of 7-mers
Direction: higher = stronger binding
Quantity: 7-mer Z-score
Target sequence (chain): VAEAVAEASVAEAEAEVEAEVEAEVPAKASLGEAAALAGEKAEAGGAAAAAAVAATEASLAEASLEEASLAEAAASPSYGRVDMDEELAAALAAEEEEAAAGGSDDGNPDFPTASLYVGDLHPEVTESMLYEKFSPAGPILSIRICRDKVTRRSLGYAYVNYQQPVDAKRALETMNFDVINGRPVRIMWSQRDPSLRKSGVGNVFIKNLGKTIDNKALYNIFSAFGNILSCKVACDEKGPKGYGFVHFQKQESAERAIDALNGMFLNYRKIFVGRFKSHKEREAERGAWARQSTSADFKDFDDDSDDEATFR
ACGCAAU: 0.00798
GUACAUA: 0.0587
CCAUUGG: -0.186
GGCCAAG: 0.0442
GCUAUCU: -0.238
UUGUGGU: -0.412
CCCCUAG: -0.436
ACAGAUG: 0.0768
CAGAAUU: -0.17
GCGAGAG: 0.126
AUCCAAA: 0.613
UCCAGGA: -0.117
AAAAGGU: 3.2
UCACAGU: -0.255
GCCUCUC: -0.387
CGCCAAG: -0.38
UAAACGA: 0.628
UUGCCCA: -0.438
UUUUAGG: -0.0373

For quick reference, copied from above (sample 3):
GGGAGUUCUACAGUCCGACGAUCACCAUGCAGGUGGGCAUCUUUGGGAAGUGGGGCUAGGGGGGGAUAGGGAGGGGGGUAACACUUUGGGAACAGGUGGUCCCAGGUCGUUUCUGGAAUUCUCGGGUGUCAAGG: 1.15
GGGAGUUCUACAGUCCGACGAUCAAUGUGUCCUCCCUGUCCAAAUUGGGAAUGACUUAAUGUCAAUUUGUUUGUUGGUUGUUUUAAUAAUACUUCCUUAUGUAGCCAUUAAGAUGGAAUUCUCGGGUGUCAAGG: -0.729
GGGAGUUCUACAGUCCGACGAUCCAAGUCCUGUGCUACACAUCGUAUGUACCGAAUCGGAAAAAAAGGUGGUUUUUGGAAAGUAUUAUGUUACGCCGUUCGGAUCUGCACUUCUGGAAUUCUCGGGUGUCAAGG: -1.14
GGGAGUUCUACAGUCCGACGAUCAAGUCCUGUGCUACACAUCGUAUGUACCGAAUCGGGAAAGGGAAAAAGGGAAAGGGAAAGUAUUAUGUUACGCCGUUCGGAUCUGCACUUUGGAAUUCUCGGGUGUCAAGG: 0.131
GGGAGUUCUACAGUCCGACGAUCUCCUGUGCUACACAUCGUAUGUACCGAAUCGGGGAGGGGAAAAAGGGGUUUUUUUGGGGAAAGUAUUAUGUUACGCCGUUCGGAUCUGCAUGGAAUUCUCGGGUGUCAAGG: 0.533
